Assay results pooled from the literature.
Every numbered part comes from another study and shows a few of its results, in no order.

Block 1 — technique: RNA Bind-n-Seq; molecule type: RNA; medium: in vitro; tested at: 200 nM; setting: whole 134-nt RNA, ends assumed; with: 150 mM KCl; relative to: input library; reading: higher = stronger binding
Target: Fragile X messenger ribonucleoprotein 1, C-terminal low-complexity region (Fmr1, Mus musculus, UniProt P35922)
Shared flanks, not repeated: GGGAGUUCUACAGUCCGACGAUC … UGGAAUUCUCGGGUGUCAAGG
| Sequence | log2 enrichment |
| --- | --- |
| GUCCUGUGCUACACAUCGUAUGUACCGAAUCGGUUUUUUUGGAAAAAAAGGAAAAAGGAAAGUAUUAUGUUACGCCGUUCGGAUCUGCAC | -0.999 |
| CACAGACAAAACGCACCCACACAGACACAGAGGGAAGGGGUUGGGAUGGGGACAGGGUGCACAGCAGGGCGGGGUAGGACCCCAGCCCCU | 1.2 |
| GUCCUGUGCUACACAUCGUAUGUACCGAAUCGGUUUUUGGGGUUUUUGGGGUUUUUGGGAAAGUAUUAUGUUACGCCGUUCGGAUCUGCA | -0.145 |
| GCAGGAAGUAAAAACAAAUGGAAAUGCUUCGGAUAGAAACAGGGGUGGGGGUUGCUAAGGAAAGGGUGGGAUGGGAGUGGGUAAAGAGUU | 0.29 |
| GCAGGAAGUAAAAACAAAUGGAAAUGCUUCGGAUGGUGGCAGGGGUGGGGGUUGCUAAGGAAAGGGUGGGAUGGGAGUGGGUAAAGAGUU | 0.762 |
| CAAGUCCUGUGCUACACAUCGUAUGUACCGAAUCGGGAAAGGGUUUUUGGGUGGGAAAGUAUUAUGUUACGCCGUUCGGAUCUGCACUUC | 0.9 |
| AGUCCUGUGCUACACAUCGUAUGUACCGAAUCGGGGAAAAAGGGAAAAAGGAAAAAGGAAAGUAUUAUGUUACGCCGUUCGGAUCUGCAC | -0.396 |
| GCUUAUGUAGACAUGAGGAAGAUUGGCAGUAGCCGGGGAAUGGUUUCUGCAUACCCUCGACAGCUAGAGUCAUUAAUCCGCUUAGCAGAA | -0.157 |
| ACCAUGCAGGUGGGCAUCUUUGGGAAGUGGGGCAAGGGGGGGAUAGGGAGGGGGGUAACACUUUGGGAACAGGUGGUCGCAGGUCGUUUC | 0.664 |

Block 2 — technique: protein binding microarray; molecule type: double-stranded DNA, one strand shown; medium: in vitro; tested at: not given; relative to: not given; reading: higher = stronger binding
Target: Histone acetyltransferase KAT6A, winged helix 1, GST fusion (KAT6A, Homo sapiens, UniProt Q92794, residues 1-85)
Setting: 8-mer, flanks averaged, mean of 2 arrays, mostly near background
Construct (chain): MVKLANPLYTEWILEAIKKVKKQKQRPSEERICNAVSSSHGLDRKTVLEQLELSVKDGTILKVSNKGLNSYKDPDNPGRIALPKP
| Sequence | E-score |
| --- | --- |
| CCTGTACA | -0.0808 |
| AGGGTGTC | -0.171 |
| TAATTTCA | -0.102 |
| GTAACCGA | 0.106 |
| CTACAGGC | 0.000595 |
| CGCTTCTC | 0.277 |
| ATAAATGG | -0.204 |
| CTCCGTGC | 0.207 |
| AACAACCA | -0.147 |
| AAGGTGTC | -0.0385 |
| GCCCGAGC | 0.147 |
| ATCCACCA | -0.189 |
| CGTGCAGA | -0.0155 |
| GGGAAAGA | -0.18 |
| AATGACGA | -0.164 |
| TTAGAGAA | -0.115 |
| ACTACCCT | -0.149 |
| ACCAGTGA | -0.171 |
| CGGATAAG | 0.143 |
| GACTAACA | 0.0126 |
| CATCTGTA | 0.0205 |

Block 3 — technique: protein-binding microarray; molecule type: double-stranded DNA, one strand shown; medium: in vitro; tested at: 2540 nM top; setting: 60-bp whole probe; with: salmon DNA 0.4 mg/ml; relative to: random background probes; reading: higher = stronger binding; shared flanks, not repeated: GCCTAGCAC … GTCTTGATTCGCTTGACGCTGCTG
Target: Interferon regulatory factor 3, full length, phosphomimetic (IRF3, Homo sapiens, UniProt Q14653, residues 1-427, S386D/S396D/S398D/S402D/T404D/S405D)
Residues (chain): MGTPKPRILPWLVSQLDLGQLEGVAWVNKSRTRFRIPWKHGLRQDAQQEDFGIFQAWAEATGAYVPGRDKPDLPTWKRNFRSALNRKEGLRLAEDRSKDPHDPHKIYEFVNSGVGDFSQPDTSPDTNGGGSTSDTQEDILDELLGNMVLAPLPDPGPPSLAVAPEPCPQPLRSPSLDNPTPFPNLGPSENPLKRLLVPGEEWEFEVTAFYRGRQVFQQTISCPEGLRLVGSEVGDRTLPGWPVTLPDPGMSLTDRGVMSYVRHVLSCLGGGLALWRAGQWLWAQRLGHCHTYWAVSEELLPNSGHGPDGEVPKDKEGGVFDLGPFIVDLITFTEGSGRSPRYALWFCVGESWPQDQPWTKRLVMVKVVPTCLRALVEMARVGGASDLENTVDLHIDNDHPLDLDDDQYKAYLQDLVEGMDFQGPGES
| Sequence | fitted relative affinity [z-score] |
| --- | --- |
| GACGGACTGGGGCATCGGGACGTGCTA | -1.11 |
| TTAGGTCTCGTTATCGGTTAGTGCTAG | 1.18 |
| GACGATATCGGTATCGAGACGTGCTAG | 1.54 |
| TAAATTTTCACGGTGGGTTCGTGCTAG | -0.289 |
| GACGGACTGGGGTTTCGGGAAGTGCTA | 0.255 |
| GACGATGTCAGACTGGAGACGTGCTAG | -0.298 |
| TCACTTTTCATTTTCTTACTGTGCTAG | 4.45 |
| TCATTTTTTTCTTTAAAACTGTGCTAG | 1.42 |
| GAGGAACTGAGTTTCGAGACGTGCTAG | 1.02 |
| GCCAAACACCCACATTCACCGTGCTAG | 0.429 |
| TGTCCTGTCTACATGGGTGTGTGCTAG | 1.21 |
| TCATCTCTGTTTATGTCACTGTGCTAG | 1.52 |
| GACGGACTGGGGACGGGGGACGTGCTA | -0.3 |
| GACGAAATGAGTATCGAGACGTGCTAG | 0.242 |
| CACTAGTTTCTTTTCTTTTCGTGCTAG | 5.97 |
| GACGATATCGGCTTTCGAGACGTGCTA | 0.235 |

Block 4 — technique: RNA Bind-n-Seq; molecule type: RNA; medium: in vitro; tested at: 365 nM; relative to: no-protein control; reading: higher = stronger binding
Target: RNA binding protein fox-1 homolog 2, RRM domain, GST-SBP tag (RBFOX2, Homo sapiens, UniProt O43251-10, residues 100-194)
Setting: natural RNA segment, single round, ends assumed
Shared flanks, not repeated: GGGAGUUCUACAGUCCGACGAUC … UGGAAUUCUCGGGUGCCAA
Target sequence (chain): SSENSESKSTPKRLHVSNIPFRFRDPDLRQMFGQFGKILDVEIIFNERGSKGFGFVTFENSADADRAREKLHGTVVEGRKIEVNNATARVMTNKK
| Sequence | RBNS enrichment (R) |
| --- | --- |
| GUCUGGGCCUGCUUAGCAAGAACCGCUUUAUUCCGGUUCCCAUACCACAUUCAGCCGGCCAGGAGACGAGCACUAGAGGAAAGCAGUAGGAAGGGACUCUAGGAGGUGGC | 0.55 |
| CAUGUAUCCUUGCUCUCCAGAGAUGGCACUAGCCUCAAUCCAGCUUCCAUCUUUGUAUACACCUGCAUGCAGGAAGACCUGGAUAUGGAUGAGCCCUGAGGAACACAGGG | 1.92 |
| UAAGGAUAGCUUCUAGGGAUAUUAGUAAUAGAUUGCCAUGAUCCUGAAGCCUCUUCUCAGAACACUGUGAAGAUAAUACUGACAGUAGAAUCAGUGAAAACAGCCUAACA | 0.44 |
| UAAAAUUCCAGUAAUUUCCAAGAAUGUGGUGUUGGUACUUUCCUAAUAAACCGAUAACGUACCUUGACUCUGUCGCCUUUUCUUUUAUGAGCGCUAGGGCACUAAACCUC | 0.349 |
| AGGAAGCUUGGGUUUGAAGCCUGCCCAGACUGGGCUGGGAGUGUUCUCAGAGUCUCAACACAGGAACGGAGUCUUCGGCUAUCAUGGACUAGGCUGAGGCUAGUGCUGGU | 1.14 |
| UUUGAACCCAGCUGCUCUGUACUGCACUUAAAUGAUGUAAUAUUCCAGGAUGCUGCUGCAGGUGGCGUAUCAUCGUACACACUCAGUGACAUUUCUAUCACAAUCAUUUU | 0.333 |
| ACAUCUUAAAAUCACUUAUAUACAAUCAUUAAAAGAGUGGUAAUUUUAUAAAUGCUUAUUUAUGUUAUAAAAUGGAGAUCAGAAAAAAAUUCUUUUUGCACUUUGGCCUA | 0.534 |
| AGGAUCUCAUAGUUAUUUUAUUAGGCCAGCCUUAUUCCAUGUCGGCAAGAGGUUUCUUGUGGAAAUUAUGUCCUUUCUGAGAGGAGCUGGGGAUUAGAUGCUCCUGCAUU | 0.4 |

Block 5 — technique: universal PBM; molecule type: double-stranded DNA, one strand shown; medium: in vitro; tested at: 600 nM; reading: higher = stronger binding
Target: Sal-like protein 4, full length isoform A (SALL4, Homo sapiens, UniProt Q9UJQ4, residues 1-1053)
Chain of UniProt Q9UJQ4 (whole entry, looked up): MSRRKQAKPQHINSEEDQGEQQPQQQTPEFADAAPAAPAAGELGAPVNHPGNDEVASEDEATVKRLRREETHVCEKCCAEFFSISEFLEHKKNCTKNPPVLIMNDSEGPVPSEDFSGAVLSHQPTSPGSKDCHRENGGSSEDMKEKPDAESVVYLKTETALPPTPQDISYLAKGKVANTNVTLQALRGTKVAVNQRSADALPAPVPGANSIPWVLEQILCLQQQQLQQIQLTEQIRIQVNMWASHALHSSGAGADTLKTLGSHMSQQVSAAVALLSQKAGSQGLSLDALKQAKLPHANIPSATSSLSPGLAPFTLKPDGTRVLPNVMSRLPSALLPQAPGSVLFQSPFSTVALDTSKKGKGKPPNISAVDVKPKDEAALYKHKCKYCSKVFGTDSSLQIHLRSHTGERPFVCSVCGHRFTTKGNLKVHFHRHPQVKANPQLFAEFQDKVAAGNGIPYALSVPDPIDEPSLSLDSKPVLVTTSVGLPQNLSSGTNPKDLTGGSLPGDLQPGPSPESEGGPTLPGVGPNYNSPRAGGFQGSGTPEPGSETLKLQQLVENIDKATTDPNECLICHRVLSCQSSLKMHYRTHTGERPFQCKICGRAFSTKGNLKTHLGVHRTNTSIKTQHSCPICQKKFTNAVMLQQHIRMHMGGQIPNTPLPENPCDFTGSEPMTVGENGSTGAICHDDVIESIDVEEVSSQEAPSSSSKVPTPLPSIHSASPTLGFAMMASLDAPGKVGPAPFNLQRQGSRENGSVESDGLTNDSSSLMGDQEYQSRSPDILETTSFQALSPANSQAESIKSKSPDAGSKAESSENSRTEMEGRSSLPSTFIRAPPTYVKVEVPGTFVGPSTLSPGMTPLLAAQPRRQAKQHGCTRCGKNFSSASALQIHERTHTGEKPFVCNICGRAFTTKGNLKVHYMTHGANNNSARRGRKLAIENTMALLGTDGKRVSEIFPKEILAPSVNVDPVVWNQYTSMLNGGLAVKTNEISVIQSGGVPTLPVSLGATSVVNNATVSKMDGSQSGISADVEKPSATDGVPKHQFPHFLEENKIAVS
Setting: 8-mer, flanks averaged, mean of replicates
| Sequence | E-score |
| --- | --- |
| ATGACTAC | 0.0988 |
| ACTTCGCA | -0.0277 |
| GGCGTCAC | -0.226 |
| AGGGCTTC | -0.156 |
| ATCTCCCA | -0.0342 |
| ACGCGCAG | -0.323 |
| CCGTTGAC | -0.185 |
| ACTAGCTC | -0.0303 |
| TGTGACAA | 0.0531 |
| AATTCCCT | 0.132 |
| GACGGCTA | -0.161 |
| ACCGTTTG | -0.121 |
| ATTCTAAC | 0.241 |
| AGGCGTGA | -0.168 |
| CATCCTAA | 0.0187 |
| GTCACGCA | -0.154 |
| ACTTCATA | 0.326 |
| AGGCAGCC | -0.275 |
| CACAGCAA | 0.0907 |
| GCACATGA | 0.0334 |
| CGCTTTCA | 0.0747 |

Some of these lines once more (block 5):
| Sequence | E-score |
| --- | --- |
| CGCTTTCA | 0.0747 |
| GGCGTCAC | -0.226 |
| CACAGCAA | 0.0907 |
| GACGGCTA | -0.161 |
| TGTGACAA | 0.0531 |
| GCACATGA | 0.0334 |
| AGGCGTGA | -0.168 |
| ATTCTAAC | 0.241 |
| ACGCGCAG | -0.323 |
